{"data": "Measurements of several laboratories", "note": "A part holds a random share of what one study measured.", "chain of UniProt P08922 (whole entry, looked up)": "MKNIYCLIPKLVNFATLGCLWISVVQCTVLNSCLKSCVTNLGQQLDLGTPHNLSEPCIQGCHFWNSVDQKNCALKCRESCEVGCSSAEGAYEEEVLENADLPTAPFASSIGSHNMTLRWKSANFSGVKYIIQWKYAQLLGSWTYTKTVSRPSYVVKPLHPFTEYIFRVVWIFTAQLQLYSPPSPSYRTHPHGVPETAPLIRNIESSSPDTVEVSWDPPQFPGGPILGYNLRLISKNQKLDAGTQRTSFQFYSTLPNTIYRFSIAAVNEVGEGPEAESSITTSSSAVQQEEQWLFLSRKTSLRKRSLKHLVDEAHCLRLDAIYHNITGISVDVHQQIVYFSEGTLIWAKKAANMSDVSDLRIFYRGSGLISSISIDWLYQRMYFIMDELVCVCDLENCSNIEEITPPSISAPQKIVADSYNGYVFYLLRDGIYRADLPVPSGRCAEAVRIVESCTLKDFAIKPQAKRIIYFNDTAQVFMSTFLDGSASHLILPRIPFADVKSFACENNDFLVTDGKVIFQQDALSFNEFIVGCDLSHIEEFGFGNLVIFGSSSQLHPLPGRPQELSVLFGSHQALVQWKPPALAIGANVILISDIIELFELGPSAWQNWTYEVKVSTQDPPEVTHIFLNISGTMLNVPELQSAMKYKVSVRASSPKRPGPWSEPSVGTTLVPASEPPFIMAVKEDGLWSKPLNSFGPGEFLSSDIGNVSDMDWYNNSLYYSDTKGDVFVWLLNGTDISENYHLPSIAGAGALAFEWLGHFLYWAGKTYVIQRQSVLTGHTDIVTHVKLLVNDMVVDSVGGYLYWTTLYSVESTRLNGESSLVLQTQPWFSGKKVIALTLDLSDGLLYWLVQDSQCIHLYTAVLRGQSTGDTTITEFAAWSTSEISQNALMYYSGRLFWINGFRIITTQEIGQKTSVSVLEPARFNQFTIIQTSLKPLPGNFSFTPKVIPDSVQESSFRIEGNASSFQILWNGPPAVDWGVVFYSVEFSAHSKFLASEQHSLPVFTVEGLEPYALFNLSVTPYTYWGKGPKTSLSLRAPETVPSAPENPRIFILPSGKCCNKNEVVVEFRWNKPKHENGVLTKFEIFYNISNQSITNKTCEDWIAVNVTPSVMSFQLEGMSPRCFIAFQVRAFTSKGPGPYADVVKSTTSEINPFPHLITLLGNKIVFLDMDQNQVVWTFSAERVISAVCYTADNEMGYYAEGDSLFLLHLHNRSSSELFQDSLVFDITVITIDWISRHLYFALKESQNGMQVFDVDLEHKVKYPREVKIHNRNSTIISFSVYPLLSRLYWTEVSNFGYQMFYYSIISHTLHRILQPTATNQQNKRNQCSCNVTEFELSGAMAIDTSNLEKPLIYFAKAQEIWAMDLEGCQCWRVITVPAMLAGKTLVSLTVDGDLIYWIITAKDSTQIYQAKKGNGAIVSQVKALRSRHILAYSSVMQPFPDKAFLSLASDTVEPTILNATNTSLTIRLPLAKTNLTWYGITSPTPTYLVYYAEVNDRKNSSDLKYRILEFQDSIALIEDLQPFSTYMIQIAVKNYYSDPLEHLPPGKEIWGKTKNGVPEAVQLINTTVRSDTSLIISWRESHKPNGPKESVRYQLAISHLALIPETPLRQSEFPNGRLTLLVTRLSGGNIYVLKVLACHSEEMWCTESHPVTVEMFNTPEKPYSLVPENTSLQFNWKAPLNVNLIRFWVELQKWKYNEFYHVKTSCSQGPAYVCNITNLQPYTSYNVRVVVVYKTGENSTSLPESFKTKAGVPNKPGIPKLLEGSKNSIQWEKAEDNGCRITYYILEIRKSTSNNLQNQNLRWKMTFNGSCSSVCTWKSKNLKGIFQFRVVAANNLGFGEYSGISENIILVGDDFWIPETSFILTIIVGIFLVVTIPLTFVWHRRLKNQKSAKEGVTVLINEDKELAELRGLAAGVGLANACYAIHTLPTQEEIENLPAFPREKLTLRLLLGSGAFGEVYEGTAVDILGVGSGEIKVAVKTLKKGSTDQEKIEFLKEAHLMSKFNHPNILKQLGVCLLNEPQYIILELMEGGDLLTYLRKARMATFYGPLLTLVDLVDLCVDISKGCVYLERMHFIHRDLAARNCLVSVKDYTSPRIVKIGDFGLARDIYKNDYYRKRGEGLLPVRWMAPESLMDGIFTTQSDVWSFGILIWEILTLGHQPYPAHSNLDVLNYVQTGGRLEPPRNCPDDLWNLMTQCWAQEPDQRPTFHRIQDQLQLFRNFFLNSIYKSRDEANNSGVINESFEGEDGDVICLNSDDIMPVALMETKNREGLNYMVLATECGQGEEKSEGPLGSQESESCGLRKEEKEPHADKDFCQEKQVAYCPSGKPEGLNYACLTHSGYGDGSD"}
{"data": "Sample 1", "target": "Phosphate system positive regulatory protein PHO4, full length, GST-tagged (PHO4, Saccharomyces cerevisiae, UniProt P07270, residues 1-312)", "method": "competition protein-binding microarray", "molecule type": "double-stranded DNA, one strand shown", "medium": "in vitro", "concentration": "2 µM", "setting": "whole 60-bp probe, lowest competitor level", "together with": "Cbf1 competitor, 0.05 µM", "reading": "higher = stronger binding", "constant ends, left off below": "… GTCTTGATTCGCTTGACGCTGCTG", "Construct (chain)": "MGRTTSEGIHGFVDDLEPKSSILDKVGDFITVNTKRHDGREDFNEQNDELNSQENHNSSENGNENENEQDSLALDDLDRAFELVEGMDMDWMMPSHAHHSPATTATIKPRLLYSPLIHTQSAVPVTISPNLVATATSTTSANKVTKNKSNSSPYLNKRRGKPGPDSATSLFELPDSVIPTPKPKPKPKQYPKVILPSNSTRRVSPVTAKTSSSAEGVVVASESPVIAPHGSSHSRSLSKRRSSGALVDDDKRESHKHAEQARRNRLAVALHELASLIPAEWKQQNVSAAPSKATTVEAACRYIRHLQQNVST"}
{"Oligonucleotide": "AAATTACTAAGTTGACAAGTGGGTGACGCCGTATGA", "fluorescence intensity": "4010 a.u."}
{"Oligonucleotide": "CCATGTTACATAATCTTCGTGCCAGTCTAATTCGTA", "fluorescence intensity": "6760 a.u."}
{"Oligonucleotide": "TGCGCAACAACTTGGGCCGTGGGTGTATGTCTAGAA", "fluorescence intensity": "6490 a.u."}
{"Oligonucleotide": "GAGTTGCTTGAGGGTCTCGTGATGGCATCTTGCTGT", "fluorescence intensity": "6310 a.u."}
{"Oligonucleotide": "TAATACGGGCATGAACGCGTGCAAACAACTCGTCCT", "fluorescence intensity": "8490 a.u."}
{"Oligonucleotide": "CTTCTGTAAATTTGTCACAACACTTGACGCGCCCCG", "fluorescence intensity": "3410 a.u."}
{"Oligonucleotide": "CGTCCTAGTGATTGTCACCGAACTTCCATGAGGAAG", "fluorescence intensity": "4060 a.u."}
{"Oligonucleotide": "CTTGTCCTCAAATGCGGCGTGCAAAGTTCATAGCGG", "fluorescence intensity": "7960 a.u."}
{"data": "Sample 2", "target": "Interferon regulatory factor 3, full length, phosphomimetic (IRF3, Homo sapiens, UniProt Q14653, residues 1-427, S386D/S396D/S398D/S402D/T404D/S405D)", "method": "protein-binding microarray", "molecule type": "double-stranded DNA, one strand shown", "medium": "in vitro", "concentration": "2540 nM top", "setting": "60-bp whole probe", "together with": "salmon DNA 0.4 mg/ml", "baseline": "random background probes", "reading": "higher = stronger binding", "constant ends, left off below": "GCCTAGCAC … GTCTTGATTCGCTTGACGCTGCTG", "Construct (chain)": "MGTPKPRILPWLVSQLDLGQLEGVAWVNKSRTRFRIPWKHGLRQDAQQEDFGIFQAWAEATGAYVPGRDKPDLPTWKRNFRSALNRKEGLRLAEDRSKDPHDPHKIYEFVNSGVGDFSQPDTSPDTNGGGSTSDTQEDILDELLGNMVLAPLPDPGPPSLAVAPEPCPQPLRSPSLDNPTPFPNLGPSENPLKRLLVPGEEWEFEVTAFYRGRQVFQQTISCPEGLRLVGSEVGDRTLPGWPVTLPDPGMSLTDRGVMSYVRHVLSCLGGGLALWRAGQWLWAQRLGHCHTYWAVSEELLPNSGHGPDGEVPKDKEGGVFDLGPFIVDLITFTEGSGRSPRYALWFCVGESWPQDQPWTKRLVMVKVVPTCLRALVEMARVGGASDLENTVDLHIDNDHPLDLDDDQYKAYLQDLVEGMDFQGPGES"}
{"Oligonucleotide": "TTACATATCGGGTTTCGATTAGTGCTA", "fitted relative affinity [z-score]": 2.41}
{"Oligonucleotide": "TTAGGATTCCTTTTCCTTTAGTGCTAG", "fitted relative affinity [z-score]": 6.93}
{"Oligonucleotide": "TGTTACTAGGGTTACATAATGTGCTAG", "fitted relative affinity [z-score]": 0.238}
{"Oligonucleotide": "GACGAACTGAGTATCGACACGTGCTAG", "fitted relative affinity [z-score]": 0.232}
{"Oligonucleotide": "GACGGTATCGACTATCTGGACGTGCTA", "fitted relative affinity [z-score]": 0.676}
{"Oligonucleotide": "CCCACTTTCACTTCTCCCTTGTGCTAG", "fitted relative affinity [z-score]": 5.09}
{"Oligonucleotide": "TCAATTTTGCTTTCATTACTGTGCTAG", "fitted relative affinity [z-score]": 2.33}
{"Oligonucleotide": "TTAGATCTAAGTTTCGATTAGTGCTAG", "fitted relative affinity [z-score]": 2.97}
{"data": "Single results of other studies"}
{"Molecule": "Cn1nc(C(F)(F)F)cc1-c1cnc(N2CCc3cc(S(=O)(=O)Nc4c(F)cc(Cl)cc4F)cc(N4CCCC4=O)c32)nc1", "target or system": "ROS1 (Homo sapiens, UniProt P08922)", "assay": "cell-free assay, competition with immobilised ligand", "conditions": "1 µM", "endpoint": "remaining binding", "result": "100%"}
{"Molecule": "ERLIN1 (Homo sapiens, UniProt O75477)", "target or system": "ERLIN2 (Homo sapiens, UniProt O94905)", "assay": "cross-linking MS", "test system": "cell fractions", "conditions": "together with: DHSO", "endpoint": "cross-linked residues", "result": "E221 to E226"}
